{"data": "Measured values from different studies", "note": "Protocols differ between the studies behind these lines. ± gives the spread as reported."}
{"SMILES": "N#Cc1ccc(C(c2ccc(C#N)cc2)n2cncn2)cc1", "test system": "human patients, plasma", "setting": "oral, 2.5 mg daily", "quantity": "unbound Cmax at steady state", "value": "0.14 ± 0.02 µM"}
{"SMILES": "Cn1cncc1[C@@](N)(c1ccc(Cl)cc1)c1ccc2c(c1)c(-c1cccc(Cl)c1)cc(=O)n2C", "test system": "healthy human, plasma", "quantity": "unbound fraction", "value": 0.0078}
{"SMILES": "Cc1cc(C)c(NC(=O)CN(CC(=O)[O-])CC(=O)[O-])c(C)c1Br.Cc1cc(C)c(NC(=O)CN(CC(=O)[O-])CC(=O)[O-])c(C)c1Br.[99Tc+4]", "assay": "ultrafiltration", "test system": "human, blood", "setting": "dose not given", "quantity": "unbound fraction", "value": 0.03}
{"SMILES": "N[C@@H]1c2cccnc2[C@H](OC(=O)N2CCC(n3c(=O)[nH]c4ncccc43)CC2)CC[C@H]1c1cccc(F)c1F", "test system": "human, plasma", "setting": "oral, 75 mg", "quantity": "unbound Cmax", "value": "0.048 µM"}
{"SMILES": "C#Cc1cccc(Nc2ncnc3cc(OCCOC)c(OCCOC)cc23)c1", "test system": "human", "setting": "mean", "quantity": "unbound fraction in plasma", "value": 0.065}
{"SMILES": "CCn1c(=O)c(-c2cc(NC(=O)Nc3ccccc3)c(F)cc2Br)cc2cnc(NC)cc21", "assay": "plasma protein binding, ultracentrifugation", "test system": "healthy human subjects, plasma", "setting": "oral, 50 mg, 24 h post-dose", "quantity": "unbound fraction", "value": "≤ 0.6%"}
{"SMILES": "O=[N+]([O-])c1cn2c(n1)OC[C@@H](OCc1ccc(N3CCOCC3)nc1)C2", "test system": "human", "quantity": "unbound fraction", "value": "> 0.7"}
{"SMILES": "CO[C@H]1/C=C/O[C@@]2(C)Oc3c(C)c(O)c4c(O)c(c5c(nc6cc(C)ccn65)c4c3C2=O)NC(=O)/C(C)=C\\C=C\\[C@H](C)[C@H](O)[C@@H](C)[C@@H](O)[C@@H](C)[C@H](OC(C)=O)[C@@H]1C", "test system": "human, plasma", "setting": "200 mg", "quantity": "unbound Cmax", "value": "0.000813 µM"}
{"SMILES": "CO[C@H]1C[C@@H]2CC[C@@H](C)[C@@](O)(O2)C(=O)C(=O)N2CCCC[C@H]2C(=O)O[C@H]([C@H](C)C[C@@H]2CC[C@@H](OC(=O)NCCOCCOCCOCCOCCOCCOCCOCCOCCC(=O)N3CCc4cc(Cn5nc(-c6ccc7oc(N)nc7c6)c6c(N)ncnc65)ccc4C3)[C@H](OC)C2)C[C@@H](O)[C@H](C)/C=C(\\C)[C@@H](O)[C@@H](OC)C(=O)[C@H](C)C[C@H](C)/C=C/C=C/C=C/1C", "test system": "human, plasma", "setting": "intravenous, 10 mg, Cycle 1 Day 15, 1 h infusion", "quantity": "unbound AUClast", "value": "22.3 nM·h"}
{"SMILES": "Cn1cnc2c(F)c(Nc3ccc(Br)cc3F)c(C(=O)NOCCO)cc21", "test system": "human, plasma", "setting": "30 mg", "quantity": "unbound Cmax", "value": "0.0199 µM"}
{"SMILES": "CC#CC(=O)N1CCC[C@H]1c1nc(-c2ccc(C(=O)Nc3ccccn3)cc2)c2c(N)nccn12", "assay": "noncompartmental analysis", "test system": "human, severe impairment, plasma", "setting": "oral, 50 mg, geometric mean", "quantity": "unbound Cmax", "value": "4.4 ng/mL"}
{"SMILES": "CCn1c(=O)c(-c2cc(NC(=O)Nc3ccccc3)c(F)cc2Br)cc2cnc(N)cc21", "assay": "plasma protein binding, ultracentrifugation", "test system": "human subjects with hepatic impairment, plasma", "setting": "24 h post-dose", "quantity": "unbound fraction", "value": "0.2 to 1.4%"}
{"SMILES": "NC[C@@]1(CC(=O)O)[C@@H]2CC[C@H]3C[C@@H]2[C@@H]1C3", "test system": "human, severe renal impairment, plasma", "setting": "dose not given", "how to read": "baseline: normal renal function", "quantity": "unbound Cmax increase", "value": "21.7%"}
{"SMILES": "CCO[C@H]1CCN(Cc2c(OC)cc(C)c3[nH]ccc23)[C@H](c2ccc(C(=O)O)cc2)C1", "test system": "human mild hepatic impairment, plasma", "setting": "oral, 200 mg single dose, median", "quantity": "unbound AUC0–12", "value": "4790 ng·h/mL"}
{"SMILES": "C#C[C@]1(OC(C)=O)CC[C@H]2[C@@H]3CCC4=CC(=NO)CC[C@@H]4[C@H]3CC[C@@]21CC (mixture of isomers)", "test system": "human, plasma", "quantity": "unbound fraction", "value": 0.0026}
{"SMILES": "CC(C)N(CCCCOCC(=O)NS(C)(=O)=O)c1cnc(-c2ccccc2)c(-c2ccccc2)n1", "test system": "human, plasma", "setting": "1.6 mg", "quantity": "unbound Cmax", "value": "0.00512 µM"}
{"SMILES": "O=[N+]([O-])c1cn2c(n1)OC[C@@H](OCc1ccc(OC(F)(F)F)cc1)C2", "test system": "human", "quantity": "unbound fraction", "value": 0.07}
{"note": "For quick reference, copied from above:"}
{"SMILES": "CCn1c(=O)c(-c2cc(NC(=O)Nc3ccccc3)c(F)cc2Br)cc2cnc(N)cc21", "assay": "plasma protein binding, ultracentrifugation", "test system": "human subjects with hepatic impairment, plasma", "setting": "24 h post-dose", "quantity": "unbound fraction", "value": "0.2 to 1.4%"}
{"SMILES": "NC[C@@]1(CC(=O)O)[C@@H]2CC[C@H]3C[C@@H]2[C@@H]1C3", "test system": "human, severe renal impairment, plasma", "setting": "dose not given", "how to read": "baseline: normal renal function", "quantity": "unbound Cmax increase", "value": "21.7%"}
